Published values from different studies.
Protocols differ between the studies behind these lines. Values joined by “and” are separate records of one study, mostly repeats; a detail may differ. ± gives the spread as reported.
slo: slo (Streptococcus pyogenes, UniProt P0C0I3)
Chain of UniProt P0C0I3 (whole entry, looked up): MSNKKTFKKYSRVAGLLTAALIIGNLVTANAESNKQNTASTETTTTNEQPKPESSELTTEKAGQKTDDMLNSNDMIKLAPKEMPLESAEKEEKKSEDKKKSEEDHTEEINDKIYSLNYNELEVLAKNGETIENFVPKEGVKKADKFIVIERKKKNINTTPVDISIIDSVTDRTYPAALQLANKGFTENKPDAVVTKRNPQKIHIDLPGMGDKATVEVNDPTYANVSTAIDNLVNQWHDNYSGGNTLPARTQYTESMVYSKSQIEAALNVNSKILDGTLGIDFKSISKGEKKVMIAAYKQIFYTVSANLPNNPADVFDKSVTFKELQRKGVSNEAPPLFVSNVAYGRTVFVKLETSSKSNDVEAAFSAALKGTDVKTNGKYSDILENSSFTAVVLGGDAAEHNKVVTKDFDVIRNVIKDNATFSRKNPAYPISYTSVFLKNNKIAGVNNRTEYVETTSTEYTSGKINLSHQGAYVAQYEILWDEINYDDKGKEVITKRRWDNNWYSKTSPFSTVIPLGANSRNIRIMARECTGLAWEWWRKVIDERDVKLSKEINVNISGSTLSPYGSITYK
Slc6a3: Sodium-dependent dopamine transporter (Slc6a3, Rattus norvegicus, UniProt P23977)
Chain of UniProt P23977 (whole entry, looked up): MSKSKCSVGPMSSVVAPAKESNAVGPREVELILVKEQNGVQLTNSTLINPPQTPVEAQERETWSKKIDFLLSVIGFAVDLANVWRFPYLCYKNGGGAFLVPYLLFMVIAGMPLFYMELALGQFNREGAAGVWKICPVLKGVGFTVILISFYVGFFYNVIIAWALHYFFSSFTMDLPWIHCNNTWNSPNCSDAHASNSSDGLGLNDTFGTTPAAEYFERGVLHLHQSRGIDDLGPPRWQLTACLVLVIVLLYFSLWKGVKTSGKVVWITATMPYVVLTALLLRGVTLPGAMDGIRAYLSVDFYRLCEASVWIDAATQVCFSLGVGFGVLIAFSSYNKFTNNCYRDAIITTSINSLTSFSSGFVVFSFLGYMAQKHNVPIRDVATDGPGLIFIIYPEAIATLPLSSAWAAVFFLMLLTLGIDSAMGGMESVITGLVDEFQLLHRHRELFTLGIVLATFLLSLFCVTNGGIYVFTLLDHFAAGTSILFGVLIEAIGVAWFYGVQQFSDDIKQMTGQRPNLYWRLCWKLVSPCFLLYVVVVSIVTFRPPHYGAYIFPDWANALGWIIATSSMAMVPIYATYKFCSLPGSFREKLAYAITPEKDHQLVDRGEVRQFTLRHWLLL
Chain of UniProt P34972 (whole entry, unmodified, looked up): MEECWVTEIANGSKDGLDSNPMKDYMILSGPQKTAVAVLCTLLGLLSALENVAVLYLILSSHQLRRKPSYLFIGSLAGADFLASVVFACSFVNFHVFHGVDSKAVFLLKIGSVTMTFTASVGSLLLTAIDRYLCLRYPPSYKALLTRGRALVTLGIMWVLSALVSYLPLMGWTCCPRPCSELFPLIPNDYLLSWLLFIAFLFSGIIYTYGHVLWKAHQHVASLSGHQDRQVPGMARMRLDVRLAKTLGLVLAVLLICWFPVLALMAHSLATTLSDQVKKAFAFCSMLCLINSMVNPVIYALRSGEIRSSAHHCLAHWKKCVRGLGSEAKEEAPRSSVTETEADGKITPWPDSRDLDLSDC
Chain of UniProt P28221 (whole entry, looked up): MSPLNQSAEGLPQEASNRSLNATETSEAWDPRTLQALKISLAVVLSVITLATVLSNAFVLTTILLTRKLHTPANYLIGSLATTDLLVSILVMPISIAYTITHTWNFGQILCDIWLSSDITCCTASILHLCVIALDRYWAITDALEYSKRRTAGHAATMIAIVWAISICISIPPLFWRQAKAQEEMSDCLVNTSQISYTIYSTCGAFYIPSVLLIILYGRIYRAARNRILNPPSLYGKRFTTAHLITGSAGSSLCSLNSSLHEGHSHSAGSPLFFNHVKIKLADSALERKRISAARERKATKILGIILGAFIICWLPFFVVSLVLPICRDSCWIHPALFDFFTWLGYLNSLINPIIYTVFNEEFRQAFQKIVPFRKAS
Chain of UniProt P05177 (whole entry, looked up): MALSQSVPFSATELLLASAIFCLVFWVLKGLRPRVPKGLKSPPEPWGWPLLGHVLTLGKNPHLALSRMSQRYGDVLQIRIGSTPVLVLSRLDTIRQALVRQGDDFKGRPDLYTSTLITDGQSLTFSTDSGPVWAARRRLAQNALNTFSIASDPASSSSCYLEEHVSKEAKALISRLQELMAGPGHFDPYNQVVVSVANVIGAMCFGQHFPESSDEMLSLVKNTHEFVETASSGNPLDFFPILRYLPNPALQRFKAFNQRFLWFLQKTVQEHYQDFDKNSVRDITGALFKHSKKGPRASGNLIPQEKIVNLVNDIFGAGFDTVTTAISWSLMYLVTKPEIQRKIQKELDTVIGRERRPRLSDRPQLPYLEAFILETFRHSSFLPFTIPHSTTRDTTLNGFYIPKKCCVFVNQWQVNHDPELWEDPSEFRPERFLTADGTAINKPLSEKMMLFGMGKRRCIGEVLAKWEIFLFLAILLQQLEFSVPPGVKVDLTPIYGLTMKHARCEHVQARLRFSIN
Chain of UniProt Q4VWF8 (whole entry, looked up): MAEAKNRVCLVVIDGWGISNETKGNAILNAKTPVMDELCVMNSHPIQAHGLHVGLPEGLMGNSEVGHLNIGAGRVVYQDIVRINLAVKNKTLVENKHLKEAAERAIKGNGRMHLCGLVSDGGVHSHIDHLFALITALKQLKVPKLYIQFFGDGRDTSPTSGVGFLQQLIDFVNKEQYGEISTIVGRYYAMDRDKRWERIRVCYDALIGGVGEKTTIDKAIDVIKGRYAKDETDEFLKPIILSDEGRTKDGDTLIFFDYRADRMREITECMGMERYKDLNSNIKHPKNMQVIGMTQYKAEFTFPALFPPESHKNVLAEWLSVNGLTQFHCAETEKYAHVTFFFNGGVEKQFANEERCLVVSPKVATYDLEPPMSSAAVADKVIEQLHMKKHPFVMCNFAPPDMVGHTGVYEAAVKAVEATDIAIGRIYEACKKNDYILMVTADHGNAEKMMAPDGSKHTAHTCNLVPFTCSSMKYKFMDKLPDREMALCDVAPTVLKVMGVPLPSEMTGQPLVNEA
Chain of UniProt P23739 (whole entry, looked up): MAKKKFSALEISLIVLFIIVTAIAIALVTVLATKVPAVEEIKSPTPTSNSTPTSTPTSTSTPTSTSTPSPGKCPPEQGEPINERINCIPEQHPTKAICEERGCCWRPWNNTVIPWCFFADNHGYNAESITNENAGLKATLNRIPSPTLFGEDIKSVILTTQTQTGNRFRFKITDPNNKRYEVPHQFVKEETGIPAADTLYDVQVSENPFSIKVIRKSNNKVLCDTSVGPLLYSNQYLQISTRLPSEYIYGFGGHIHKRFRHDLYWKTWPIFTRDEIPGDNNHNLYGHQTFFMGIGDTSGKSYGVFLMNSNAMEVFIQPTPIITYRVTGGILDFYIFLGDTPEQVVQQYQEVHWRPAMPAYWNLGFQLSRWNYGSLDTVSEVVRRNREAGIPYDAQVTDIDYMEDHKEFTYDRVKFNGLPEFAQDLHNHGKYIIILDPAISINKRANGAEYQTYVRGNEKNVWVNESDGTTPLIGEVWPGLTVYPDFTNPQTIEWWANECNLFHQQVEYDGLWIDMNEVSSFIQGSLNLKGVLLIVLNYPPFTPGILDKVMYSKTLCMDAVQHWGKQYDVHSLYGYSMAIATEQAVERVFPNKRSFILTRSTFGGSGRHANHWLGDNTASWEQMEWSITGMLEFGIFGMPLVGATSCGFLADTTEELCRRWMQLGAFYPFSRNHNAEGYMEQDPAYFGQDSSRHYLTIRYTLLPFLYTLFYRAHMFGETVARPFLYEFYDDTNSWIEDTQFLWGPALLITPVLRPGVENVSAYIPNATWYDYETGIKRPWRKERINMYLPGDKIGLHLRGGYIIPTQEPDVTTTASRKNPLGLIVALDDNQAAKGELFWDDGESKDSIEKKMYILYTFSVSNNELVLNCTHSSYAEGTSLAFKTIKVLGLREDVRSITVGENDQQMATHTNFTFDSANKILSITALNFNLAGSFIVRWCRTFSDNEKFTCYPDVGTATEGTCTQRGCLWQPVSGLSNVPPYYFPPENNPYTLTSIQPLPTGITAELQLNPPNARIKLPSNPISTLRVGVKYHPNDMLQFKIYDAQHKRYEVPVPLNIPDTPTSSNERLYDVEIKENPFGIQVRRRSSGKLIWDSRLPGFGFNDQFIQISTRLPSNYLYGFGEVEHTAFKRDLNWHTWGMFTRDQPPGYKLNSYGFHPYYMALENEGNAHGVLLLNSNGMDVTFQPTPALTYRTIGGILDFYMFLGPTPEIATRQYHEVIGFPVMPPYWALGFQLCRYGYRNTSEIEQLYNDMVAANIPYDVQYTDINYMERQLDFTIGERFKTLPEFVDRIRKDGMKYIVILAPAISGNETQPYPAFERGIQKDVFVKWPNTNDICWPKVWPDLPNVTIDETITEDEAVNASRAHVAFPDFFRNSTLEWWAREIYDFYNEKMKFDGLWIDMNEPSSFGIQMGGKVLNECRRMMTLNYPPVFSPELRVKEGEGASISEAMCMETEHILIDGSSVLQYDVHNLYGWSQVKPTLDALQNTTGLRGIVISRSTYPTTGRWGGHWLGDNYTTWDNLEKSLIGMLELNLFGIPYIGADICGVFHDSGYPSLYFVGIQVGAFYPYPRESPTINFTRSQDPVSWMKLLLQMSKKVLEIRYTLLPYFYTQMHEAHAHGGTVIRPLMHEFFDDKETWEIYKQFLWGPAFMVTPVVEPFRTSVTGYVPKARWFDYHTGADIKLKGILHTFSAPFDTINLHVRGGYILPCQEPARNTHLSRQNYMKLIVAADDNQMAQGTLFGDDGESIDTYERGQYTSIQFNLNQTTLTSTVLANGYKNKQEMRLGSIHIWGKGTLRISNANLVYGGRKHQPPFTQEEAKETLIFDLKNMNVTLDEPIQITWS
Chain of UniProt P40337 (whole entry, looked up): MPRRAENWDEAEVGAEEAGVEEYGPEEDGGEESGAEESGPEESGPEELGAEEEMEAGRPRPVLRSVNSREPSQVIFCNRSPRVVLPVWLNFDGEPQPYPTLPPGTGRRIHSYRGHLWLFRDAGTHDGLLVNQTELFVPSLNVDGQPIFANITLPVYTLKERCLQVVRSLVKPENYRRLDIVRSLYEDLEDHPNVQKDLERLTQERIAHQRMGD

| Structure (SMILES) | tested on | assay | system | setting | how to read | endpoint | value |
| --- | --- | --- | --- | --- | --- | --- | --- |
| CC[C@H](C)[C@H](NC(=O)[C@@H](NC(=O)[C@H](CC(=O)O)NC(C)=O)[C@@H](C)O)C(=O)N[C@@H](CCCNC(=N)N)C(=O)N[C@@H](CC(C)C)C(=O)N[C@@H](CC(C)C)C(=O)N[C@@H](Cc1ccccc1)C(=O)N[C@@H](CCC(N)=O)C(=O)N[C@@H](CC(C)C)C(=O)N[C@@H](CCSC)C(=O)N[C@@H](CCCNC(=N)N)C(=O)N1CCC[C@H]1C(=O)N1CCC[C@H]1C(=O)N[C@@H](CC(N)=O)C(=O)N[C@@H](CCSC)C(=O)N[C@H](C(=O)N1CCC[C@H]1C(=O)N[C@@H](C)C(=O)N[C@H](C(=O)N[C@@H](CC(N)=O)C(=O)N[C@@H](C)C(N)=O)C(C)C)[C@@H](C)O | – | refers to: HA-23 tetramer | tetramer+ CD4 T cells, PBMC, healthy adults, HLA-DRB1*0101 | dose not given, CD62L−CD45RA+/− or CD62L+CD45RA− | – | antigen-experienced T cells | 87% |
| CC1=CC(C)=[N+]2C1=Cc1ccc(CCC(=O)NCCOCCOCCOCCOCC(=O)N[C@H](C(=O)N3C[C@H](O)C[C@H]3C(=O)NCc3ccc(-c4scnc4C)cc3)C(C)(C)C)n1[B-]2(F)F | von Hippel-Lindau disease tumor suppressor, with elongin B/C (VHL, Homo sapiens, UniProt P40337) | binding, TR-FRET | – | 180 min, with: BODIPY FL VH032 | – | Kd | 2.98 nM |
| CC(=O)Oc1cccc2[nH]cc(CC[N+](C)(C)C)c12 | HTR1A (Homo sapiens, UniProt P08908) | ligand displacement, radioligand | – | cell membranes | – | Ki | > 10000 nM |
| N=C(N)NCCC[C@@H]1NC(=O)[C@H](CCCCNC(=O)CCOCCOCCOCCOCCNC(=O)CC[C@H](NC(=O)CCOCCOCCOCCOCCNC(=O)CC[C@H](NC(=O)CN2CCN(CC(=O)O)CCN(CC(=O)O)CCN(CC(=O)O)CC2)C(=O)NCCOCCOCCOCCOCCC(=O)N[C@@H](CCC(=O)NCCOCCOCCOCCOCCC(=O)NCCCC[C@@H]2NC(=O)[C@@H](Cc3ccccc3)NC(=O)[C@H](CC(=O)O)NC(=O)CNC(=O)[C@H](CCCNC(=N)N)NC2=O)C(=O)NCCOCCOCCOCCOCCC(=O)NCCCC[C@@H]2NC(=O)[C@@H](Cc3ccccc3)NC(=O)[C@H](CC(=O)O)NC(=O)CNC(=O)[C@H](CCCNC(=N)N)NC2=O)C(=O)NCCOCCOCCOCCOCCC(=O)NCCCC[C@@H]2NC(=O)[C@@H](Cc3ccccc3)NC(=O)[C@H](CC(=O)O)NC(=O)CNC(=O)[C@H](CCCNC(=N)N)NC2=O)NC(=O)[C@@H](Cc2ccccc2)NC(=O)[C@H](CC(=O)O)NC(=O)CNC1=O [indium-111 labelled] | – | – | female athymic nude mice, heart | intravenous, 3 µCi, 0.5 h, U-87 MG glioma xenograft | – | tissue uptake | 0.57 ± 0.15 %ID/g |
| N=C(N)NCCCCC(=O)NCC1(Nc2ccccc2)CCN(Cc2ccccc2)CC1 | Neuropeptide FF receptor 2 (Homo sapiens, UniProt Q9Y5X5) | cell-free assay | – | – | – | Ki | 2220 nM |
| CCCCCn1cc(C(=O)c2cccc3c2CC(C)(C)C3)c2ccccc21 | CNR2 (Homo sapiens, UniProt P34972, L182I) | G protein activation, agonist, BRET | – | – | – | EC50 | 0.447 nM |
| C[N+](C)(C)CCc1c[nH]c2cccc(O)c12 | HTR1D (Homo sapiens, UniProt P28221) | ligand displacement, radioligand | – | – | – | Ki | 4900 nM |
| CC(=O)NC1C(OC2C(O)C(CO)OC(OC3C(O)C(CO)OC(OC4C(O)C(O)OC(CO)C4O)C3NC(C)=O)C2OC2OC(C)C(O)C(O)C2O)OC(CO)C(O)C1O (stereo not drawn) | slo | binding | – | – | – | Kd | 105 nM |
| CCCC[C@H]1C(=O)N2CCC[C@H]2C(=O)N[C@H](C(N)=O)CSCC(=O)N[C@@H](Cc2ccc(O)cc2)C(=O)N(C)[C@@H](Cc2ccc(OC)cc2)C(=O)N[C@@H](CCCNC(=N)N)C(=O)N(C)[C@@H](Cc2ccccc2)C(=O)N[C@@H](CC(=O)O)C(=O)N(C)[C@@H](CO)C(=O)N(C)[C@@H](Cc2ccc(O)cc2)C(=O)N[C@@H](CCC(N)=O)C(=O)N[C@@H](CO)C(=O)N(C)[C@@H](CO)C(=O)N(C)[C@@H](Cc2ccc(OC)cc2)C(=O)N[C@@H](C(C)C)C(=O)N(C)[C@@H](Cc2ccc(O)cc2)C(=O)N1C | gpmI (Escherichia coli, UniProt P37689) | enzyme activity, inhibitor, luminescent coupled-enzyme ATP | – | 15 min, 37 °C | – | AC50 | 3090 nM |
| CCC[N+](C)(C)CCc1c[nH]c2cccc(O)c12 | SLC6A4 (Homo sapiens, UniProt P31645) | ligand displacement, radioligand | – | – | – | Ki | 890 nM |
| COc1cc(C(=O)NCCOCCOCCOCCNC(=O)c2ccc([18F])nc2)ccc1NC(=O)C1NC(CC(C)(C)C)C(C#N)(c2ccc(Cl)cc2F)C1c1cccc(Cl)c1F (stereo not drawn) | HepG2 tumour model | – | host not given, kidney | 2 h, tumour-bearing | – | tracer uptake | 2.54 %ID/g |
| CCCCCCCCC(=O)NCc1ccc(O)c(OC)c1 | mAb 5-3H1 | antibody binding, indirect competitive ELISA | – | with: coating antigen 3-OVA | – | IC50 | 0.243 µg/mL |
| CNC(C)C(=O)c1ccc(OC(F)(F)F)cc1 (stereo not drawn) | Slc6a3 | dopamine release, releaser | rat brain synaptosomes | with: [3H]dopamine | – | EC50 | > 4000 nM |
| CCCCCc1cc(O)c2c(c1)OC(C)(C)C1=C2[C@@H](O)[C@@](C)(O)CC1 | Si (Rattus norvegicus, UniProt P23739) | enzyme activity, inhibitor | – | – | – | Ki | 305000 nM |
| OP(O)(=S)O[C@H]1[C@H](OP(O)(O)=S)[C@@H](OP(O)(O)=S)[C@H](OP(O)(O)=S)[C@@H](OP(O)(O)=S)[C@H]1OP(O)(O)=S | Toxin B (tcdB, Clostridioides difficile, UniProt P18177) | binding, ITC | – | – | – | Kd | 413 nM |
| CCCCCn1cc(C(=O)c2ccc3ccccc3c2)c2ccccc21 | CNR2 (Homo sapiens, UniProt P34972, I110L) | G protein activation, agonist, BRET | – | – | – | EC50 | 49 nM |
| Cc1ccccc1N1C(=O)/C(=C/c2ccc(OCc3cccc(C(=O)O)c3)cc2)C(=O)NC1=S | PTPN2 (Homo sapiens, UniProt P17706) | enzyme activity, inhibitor | – | – | – | IC50 | 1520 nM |
| N=C(N)NCCC[C@@H]1NC(=O)[C@H](CCCCNC(=O)CNC(=O)CNC(=O)CNC(=O)CC[C@H](NC(=O)CCOCCOCCOCCOCCNC(=O)CC[C@H](NC(=O)CN2CCN(CC(=O)O)CCN(CC(=O)O)CCN(CC(=O)O)CC2)C(=O)NCCOCCOCCOCCOCCC(=O)N[C@@H](CCC(=O)NCC(=O)NCC(=O)NCC(=O)NCCCC[C@@H]2NC(=O)[C@@H](Cc3ccccc3)NC(=O)[C@H](CC(=O)O)NC(=O)CNC(=O)[C@H](CCCNC(=N)N)NC2=O)C(=O)NCC(=O)NCC(=O)NCC(=O)NCCCC[C@@H]2NC(=O)[C@@H](Cc3ccccc3)NC(=O)[C@H](CC(=O)O)NC(=O)CNC(=O)[C@H](CCCNC(=N)N)NC2=O)C(=O)NCC(=O)NCC(=O)NCC(=O)NCCCC[C@@H]2NC(=O)[C@@H](Cc3ccccc3)NC(=O)[C@H](CC(=O)O)NC(=O)CNC(=O)[C@H](CCCNC(=N)N)NC2=O)NC(=O)[C@@H](Cc2ccccc2)NC(=O)[C@H](CC(=O)O)NC(=O)CNC1=O [indium-111 labelled] | – | – | athymic nude mice, female, U-87 MG glioma xenograft, tumour and blood | intravenous, 4 h | baseline: tumour over blood | tumour to tissue ratio | 218 ± 44.6 |
| CCCCCc1cc(O)c2c(c1)OC(C)(C)C1CCC(C)=CC21 (single isomer, unassigned; (-)) | Cytochrome P450 1A2 (CYP1A2, Homo sapiens, UniProt P05177) | enzyme activity, inhibitor | human, liver microsomes | pH 7.4 | – | Ki | 2000 nM |
| CCC[C@H](C(=O)c1ccccc1)N1CCCC1 | Slc6a3 | transporter uptake, inhibitor, radiometric | – | – | – | IC50 | 307 nM |
| CC(=O)NC1C(OC2C(O)C(O)OC(CO)C2O)OC(CO)C(O)C1OC1OC(CO)C(O)C(OC2OC(CO)C(O)C(O)C2O)C1OC1OC(C)C(O)C(O)C1O (stereo not drawn) | slo | binding | – | – | – | Kd | 0.116 nM and 0.12 nM |
| CN[C@](C)(C[18F])C(=O)O | MDA-MB-468 tumour model | – | host not given, tumour | 15 min, tumour-bearing | – | tracer uptake | 3.4 %ID/g |
| CN1C(=O)[C@H](CCC(=O)O)NC(=O)[C@H](Cc2ccc(O)cc2)NC(=O)[C@H](CCCNC(=N)N)NC(=O)[C@@H](Cc2ccc(O)cc2)NC(=O)CSC[C@@H](C(N)=O)NC(=O)[C@H](CCCCN)NC(=O)[C@@H]2CCCN2C(=O)[C@H](CS)NC(=O)[C@H](CCC(=O)O)NC(=O)[C@H](Cc2ccc(O)cc2)N(C)C(=O)[C@H](CCCCN)NC(=O)[C@H](Cc2ccc(O)cc2)NC(=O)[C@@H]1Cc1ccc(O)cc1 | ipgm-1 (Brugia malayi, UniProt Q4VWF8) | enzyme activity, inhibitor, luminescent coupled-enzyme ATP | – | – | – | AC50 | 1700 nM |
| C[C@]12CC[C@H](OC(=O)C3CC3)[C@@](C)(COC(=O)C3CC3)C1C[C@H](O)[C@@]1(C)Oc3cc(-c4cccnc4)oc(=O)c3[C@H](O)C21 (stereo partly drawn) | Halyomorpha halys Nan-Iav | radioligand competition binding | – | – | – | Ki | 0.01 nM |

A few entries again:
| Structure (SMILES) | tested on | assay | system | setting | how to read | endpoint | value |
| --- | --- | --- | --- | --- | --- | --- | --- |
| CCCC[C@H]1C(=O)N2CCC[C@H]2C(=O)N[C@H](C(N)=O)CSCC(=O)N[C@@H](Cc2ccc(O)cc2)C(=O)N(C)[C@@H](Cc2ccc(OC)cc2)C(=O)N[C@@H](CCCNC(=N)N)C(=O)N(C)[C@@H](Cc2ccccc2)C(=O)N[C@@H](CC(=O)O)C(=O)N(C)[C@@H](CO)C(=O)N(C)[C@@H](Cc2ccc(O)cc2)C(=O)N[C@@H](CCC(N)=O)C(=O)N[C@@H](CO)C(=O)N(C)[C@@H](CO)C(=O)N(C)[C@@H](Cc2ccc(OC)cc2)C(=O)N[C@@H](C(C)C)C(=O)N(C)[C@@H](Cc2ccc(O)cc2)C(=O)N1C | gpmI (Escherichia coli, UniProt P37689) | enzyme activity, inhibitor, luminescent coupled-enzyme ATP | – | 15 min, 37 °C | – | AC50 | 3090 nM |
| CCC[N+](C)(C)CCc1c[nH]c2cccc(O)c12 | SLC6A4 (Homo sapiens, UniProt P31645) | ligand displacement, radioligand | – | – | – | Ki | 890 nM |
| COc1cc(C(=O)NCCOCCOCCOCCNC(=O)c2ccc([18F])nc2)ccc1NC(=O)C1NC(CC(C)(C)C)C(C#N)(c2ccc(Cl)cc2F)C1c1cccc(Cl)c1F (stereo not drawn) | HepG2 tumour model | – | host not given, kidney | 2 h, tumour-bearing | – | tracer uptake | 2.54 %ID/g |
| CCCCCCCCC(=O)NCc1ccc(O)c(OC)c1 | mAb 5-3H1 | antibody binding, indirect competitive ELISA | – | with: coating antigen 3-OVA | – | IC50 | 0.243 µg/mL |
